Experimental data of several laboratories.
Every numbered part comes from another study and shows a few of its results, in no order. Positions count from the first letter of the parent shown.

Block 1 — target: CCNA1, cyclin fold, Cln2 fusion (human); method: yeast growth competition, sequencing; matrix: yeast; setting: weak parent motif; baseline: not given; direction: higher = stronger binding
Starting sequence: PKMYT1 docking peptide (human); SFEPRNLLSLFED
Variant | normalised enrichment score
L8G | 0.279
E12N | -0.0194
F2C | 0.0405
S1Y | -0.0293
L7R | 0.111
P4L | 0.00531
S9H | 0.227
L7V | 0.14

Block 2 — target: OGT, full length, His-tagged (human); method: phage display, sequencing; matrix: in vitro; concentration: 1 µg OGT; baseline: input library; direction: higher = stronger binding; starting sequence: peptide; GDFPVMFMPKYSIIY
Setting: single substitutions, 15-mer displayed peptide, unchanged parent 5.27
Variant | fold enrichment
P4G | 7.76 fold
I14G | 0.621 fold
P9E | 2.64 fold
D2W | 3.72 fold
F7R | 1.53 fold
M6H | 3.97 fold
G1Q | 6.01 fold
K10H | 3.37 fold

Further values, each from its own experiment — concentration: not given; direction: lower = stronger binding
FHL1 DNA-binding domain: Pre-rRNA-processing protein FHL1, DNA-binding domain (FHL1, Saccharomyces cerevisiae, UniProt P39521, residues 401-638)
UniProt P39521, sequence (401-638, looked up): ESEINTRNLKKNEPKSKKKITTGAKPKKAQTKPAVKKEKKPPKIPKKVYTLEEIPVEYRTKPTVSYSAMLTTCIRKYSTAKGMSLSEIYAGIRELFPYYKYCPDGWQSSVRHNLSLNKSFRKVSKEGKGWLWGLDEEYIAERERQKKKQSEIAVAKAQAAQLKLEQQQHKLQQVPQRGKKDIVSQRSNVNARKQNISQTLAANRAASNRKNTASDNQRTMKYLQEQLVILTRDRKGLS
P1: PafA, mature enzyme, eGFP fusion (Elizabethkingia meningoseptica, UniProt Q9KJX5); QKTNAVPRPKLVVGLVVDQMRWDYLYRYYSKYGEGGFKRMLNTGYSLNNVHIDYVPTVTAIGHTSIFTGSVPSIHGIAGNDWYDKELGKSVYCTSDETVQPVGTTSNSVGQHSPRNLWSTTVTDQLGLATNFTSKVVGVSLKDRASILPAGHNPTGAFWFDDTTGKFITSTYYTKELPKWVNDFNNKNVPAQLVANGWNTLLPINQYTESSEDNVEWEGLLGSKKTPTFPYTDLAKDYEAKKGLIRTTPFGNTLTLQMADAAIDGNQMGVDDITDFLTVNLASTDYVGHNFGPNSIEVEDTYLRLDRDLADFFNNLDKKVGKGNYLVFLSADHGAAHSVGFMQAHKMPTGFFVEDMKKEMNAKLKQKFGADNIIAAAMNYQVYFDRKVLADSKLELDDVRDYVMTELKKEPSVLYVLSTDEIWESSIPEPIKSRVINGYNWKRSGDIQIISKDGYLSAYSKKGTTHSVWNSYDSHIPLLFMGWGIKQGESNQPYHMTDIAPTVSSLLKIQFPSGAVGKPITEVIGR
Molecule | target | assay | system | conditions | scale | endpoint | result
AACGCA | FHL1 DNA-binding domain | SELEX-seq | double-stranded DNA, one strand shown, in vitro | 6-bp core, flanks averaged | baseline: best-binding core | relative binding free energy | 0.209 ddG/RT
P1 D473G | inorganic phosphate, free oxyanion | microfluidic competitive inhibition | in vitro, cell-free expressed | derived from inhibition constants, unchanged parent 615000 nM | – | phosphate dissociation constant | 135 µM
GACTCA | FHL1 DNA-binding domain | SELEX-seq | double-stranded DNA, one strand shown, in vitro | 6-bp core, flanks averaged | baseline: best-binding core | relative binding free energy | 0.239 ddG/RT
